{"data": "Measured values gathered from unrelated publications", "note": "Numbered parts are unrelated; each lists some results of a single study.", "chain of UniProt Q9UHD2 (whole entry, looked up)": "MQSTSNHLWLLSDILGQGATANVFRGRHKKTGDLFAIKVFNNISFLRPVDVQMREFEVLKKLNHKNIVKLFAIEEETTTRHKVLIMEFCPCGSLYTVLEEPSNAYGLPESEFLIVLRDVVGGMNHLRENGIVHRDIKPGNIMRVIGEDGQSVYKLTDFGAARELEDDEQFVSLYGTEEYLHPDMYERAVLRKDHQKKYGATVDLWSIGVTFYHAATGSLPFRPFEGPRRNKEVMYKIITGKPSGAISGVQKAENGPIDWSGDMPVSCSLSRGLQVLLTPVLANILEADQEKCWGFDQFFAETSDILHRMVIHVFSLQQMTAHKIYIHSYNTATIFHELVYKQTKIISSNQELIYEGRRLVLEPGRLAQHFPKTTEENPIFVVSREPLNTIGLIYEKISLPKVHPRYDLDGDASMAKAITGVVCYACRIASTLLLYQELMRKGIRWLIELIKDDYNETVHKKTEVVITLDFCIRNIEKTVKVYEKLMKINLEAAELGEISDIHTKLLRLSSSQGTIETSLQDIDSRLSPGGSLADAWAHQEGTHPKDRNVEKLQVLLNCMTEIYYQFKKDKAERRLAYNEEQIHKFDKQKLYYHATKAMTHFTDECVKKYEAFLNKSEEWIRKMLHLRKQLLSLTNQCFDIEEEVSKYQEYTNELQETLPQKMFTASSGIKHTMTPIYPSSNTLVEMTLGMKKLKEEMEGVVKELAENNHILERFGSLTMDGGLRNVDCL", "chain of UniProt Q9HC98 (whole entry, looked up)": "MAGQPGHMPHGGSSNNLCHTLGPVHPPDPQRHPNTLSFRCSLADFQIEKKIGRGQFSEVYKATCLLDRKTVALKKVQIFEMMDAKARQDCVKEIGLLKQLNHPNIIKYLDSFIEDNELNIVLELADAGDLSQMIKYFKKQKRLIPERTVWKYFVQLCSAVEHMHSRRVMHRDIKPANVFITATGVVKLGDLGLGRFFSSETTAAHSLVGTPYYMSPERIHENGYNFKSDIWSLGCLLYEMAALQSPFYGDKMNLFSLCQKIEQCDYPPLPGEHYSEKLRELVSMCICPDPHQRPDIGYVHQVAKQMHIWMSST", "chain of UniProt O95747 (whole entry, looked up)": "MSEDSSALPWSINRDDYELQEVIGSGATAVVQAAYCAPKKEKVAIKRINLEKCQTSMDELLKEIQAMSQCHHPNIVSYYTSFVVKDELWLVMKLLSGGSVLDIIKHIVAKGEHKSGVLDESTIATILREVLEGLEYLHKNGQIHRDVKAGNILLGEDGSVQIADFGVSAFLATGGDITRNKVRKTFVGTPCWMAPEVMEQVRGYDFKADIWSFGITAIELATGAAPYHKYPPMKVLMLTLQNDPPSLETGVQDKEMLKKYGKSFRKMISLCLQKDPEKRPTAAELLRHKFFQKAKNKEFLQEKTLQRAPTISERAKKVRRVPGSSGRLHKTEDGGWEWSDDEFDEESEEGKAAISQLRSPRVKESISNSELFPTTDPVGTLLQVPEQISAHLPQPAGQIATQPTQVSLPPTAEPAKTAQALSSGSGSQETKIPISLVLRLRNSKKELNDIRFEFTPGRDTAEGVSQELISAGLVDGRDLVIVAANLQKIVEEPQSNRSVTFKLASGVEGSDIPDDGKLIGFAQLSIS", "chain of UniProt Q8NE63 (whole entry, looked up)": "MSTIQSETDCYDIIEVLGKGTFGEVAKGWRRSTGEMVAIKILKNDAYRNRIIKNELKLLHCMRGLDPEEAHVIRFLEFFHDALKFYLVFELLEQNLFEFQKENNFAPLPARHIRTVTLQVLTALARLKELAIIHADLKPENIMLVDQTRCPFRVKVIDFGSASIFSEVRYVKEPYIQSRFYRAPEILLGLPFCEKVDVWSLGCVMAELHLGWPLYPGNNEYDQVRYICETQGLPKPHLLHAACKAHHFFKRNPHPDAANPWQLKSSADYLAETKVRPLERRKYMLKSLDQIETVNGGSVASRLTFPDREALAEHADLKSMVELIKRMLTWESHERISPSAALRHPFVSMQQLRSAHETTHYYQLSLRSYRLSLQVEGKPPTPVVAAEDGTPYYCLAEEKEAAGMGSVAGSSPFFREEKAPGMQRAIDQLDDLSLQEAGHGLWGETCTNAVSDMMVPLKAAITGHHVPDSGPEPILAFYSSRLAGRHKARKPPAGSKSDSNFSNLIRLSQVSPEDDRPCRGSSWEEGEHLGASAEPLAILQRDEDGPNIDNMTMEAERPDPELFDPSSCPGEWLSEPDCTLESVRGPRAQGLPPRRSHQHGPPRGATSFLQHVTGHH", "chain of UniProt P06239 (whole entry, looked up)": "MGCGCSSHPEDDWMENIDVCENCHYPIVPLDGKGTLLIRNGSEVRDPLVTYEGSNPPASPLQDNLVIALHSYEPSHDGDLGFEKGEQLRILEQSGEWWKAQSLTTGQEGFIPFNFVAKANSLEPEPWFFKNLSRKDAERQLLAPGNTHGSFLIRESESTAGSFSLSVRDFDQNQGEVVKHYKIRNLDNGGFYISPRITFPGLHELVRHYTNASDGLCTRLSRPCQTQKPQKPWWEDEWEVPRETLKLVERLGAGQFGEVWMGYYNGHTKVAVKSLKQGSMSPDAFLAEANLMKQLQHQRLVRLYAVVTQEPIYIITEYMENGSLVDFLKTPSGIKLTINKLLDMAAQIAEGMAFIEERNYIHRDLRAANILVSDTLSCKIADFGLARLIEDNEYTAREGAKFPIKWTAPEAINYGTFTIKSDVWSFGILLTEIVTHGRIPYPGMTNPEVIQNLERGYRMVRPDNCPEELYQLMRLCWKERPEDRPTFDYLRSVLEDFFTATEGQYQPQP", "chain of UniProt Q99558 (whole entry, looked up)": "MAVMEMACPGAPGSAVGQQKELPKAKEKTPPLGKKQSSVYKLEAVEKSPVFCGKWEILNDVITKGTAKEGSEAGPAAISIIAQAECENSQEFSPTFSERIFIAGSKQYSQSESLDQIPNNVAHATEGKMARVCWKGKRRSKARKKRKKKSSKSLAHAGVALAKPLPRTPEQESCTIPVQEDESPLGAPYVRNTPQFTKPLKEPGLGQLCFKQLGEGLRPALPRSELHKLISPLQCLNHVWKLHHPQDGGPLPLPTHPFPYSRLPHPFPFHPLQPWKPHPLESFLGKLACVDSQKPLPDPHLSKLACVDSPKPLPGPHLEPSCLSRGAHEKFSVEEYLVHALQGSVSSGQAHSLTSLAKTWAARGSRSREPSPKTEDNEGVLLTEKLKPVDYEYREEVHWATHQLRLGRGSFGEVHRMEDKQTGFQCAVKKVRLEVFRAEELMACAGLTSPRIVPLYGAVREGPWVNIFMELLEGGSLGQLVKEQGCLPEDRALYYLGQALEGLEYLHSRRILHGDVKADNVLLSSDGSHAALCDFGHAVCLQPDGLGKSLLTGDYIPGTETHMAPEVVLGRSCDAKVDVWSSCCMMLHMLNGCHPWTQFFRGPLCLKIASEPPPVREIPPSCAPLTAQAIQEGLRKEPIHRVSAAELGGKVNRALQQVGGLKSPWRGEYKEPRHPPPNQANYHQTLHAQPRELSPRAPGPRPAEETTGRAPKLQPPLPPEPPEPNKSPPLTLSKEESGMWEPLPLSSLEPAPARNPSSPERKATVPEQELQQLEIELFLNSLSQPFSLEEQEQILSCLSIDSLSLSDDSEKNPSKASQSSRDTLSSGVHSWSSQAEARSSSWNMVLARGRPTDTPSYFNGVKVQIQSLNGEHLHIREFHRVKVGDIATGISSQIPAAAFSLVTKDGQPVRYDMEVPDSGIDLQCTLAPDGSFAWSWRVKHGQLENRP", "chain of UniProt P52333 (whole entry, looked up)": "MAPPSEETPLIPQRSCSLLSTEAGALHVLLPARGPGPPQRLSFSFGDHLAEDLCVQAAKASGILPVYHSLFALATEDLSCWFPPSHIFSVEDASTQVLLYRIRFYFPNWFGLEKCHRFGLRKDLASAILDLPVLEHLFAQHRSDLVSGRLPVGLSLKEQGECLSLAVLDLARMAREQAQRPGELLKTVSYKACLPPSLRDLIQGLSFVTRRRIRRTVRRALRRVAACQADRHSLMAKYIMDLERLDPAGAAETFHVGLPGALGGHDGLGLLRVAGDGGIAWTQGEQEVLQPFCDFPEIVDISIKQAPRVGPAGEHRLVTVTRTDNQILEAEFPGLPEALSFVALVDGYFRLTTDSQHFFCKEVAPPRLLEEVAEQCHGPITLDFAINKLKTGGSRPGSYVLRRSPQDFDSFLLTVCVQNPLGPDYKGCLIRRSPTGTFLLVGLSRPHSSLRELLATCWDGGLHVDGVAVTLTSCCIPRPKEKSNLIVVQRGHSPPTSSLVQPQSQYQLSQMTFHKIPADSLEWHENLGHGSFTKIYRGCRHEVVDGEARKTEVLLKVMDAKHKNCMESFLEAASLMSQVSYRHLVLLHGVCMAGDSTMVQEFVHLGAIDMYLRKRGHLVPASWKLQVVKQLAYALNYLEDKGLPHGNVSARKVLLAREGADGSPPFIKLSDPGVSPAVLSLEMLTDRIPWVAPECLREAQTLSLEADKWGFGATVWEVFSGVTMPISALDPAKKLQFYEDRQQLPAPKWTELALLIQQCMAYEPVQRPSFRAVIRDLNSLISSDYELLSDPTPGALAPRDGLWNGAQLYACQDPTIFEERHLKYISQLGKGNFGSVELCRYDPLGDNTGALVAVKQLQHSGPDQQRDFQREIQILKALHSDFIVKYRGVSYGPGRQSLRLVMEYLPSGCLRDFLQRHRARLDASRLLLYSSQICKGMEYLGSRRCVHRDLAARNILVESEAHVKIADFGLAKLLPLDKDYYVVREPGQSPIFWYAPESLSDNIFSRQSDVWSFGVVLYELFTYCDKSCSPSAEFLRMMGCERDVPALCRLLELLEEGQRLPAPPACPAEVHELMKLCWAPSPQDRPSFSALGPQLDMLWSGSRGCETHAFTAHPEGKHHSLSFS"}
{"data": "Series 1", "target": "Prothrombin, mature alpha-thrombin (F2, Homo sapiens, UniProt P00734)", "technique": "aptamer microarray, sandwich", "molecule type": "DNA with 2'F-ANA", "medium": "in vitro", "tested at": "200 nM", "notes": "whole 15-mer aptamer, many near background", "added": "Cy3 exosite-II aptamer, 400 nM", "direction": "higher = stronger binding", "strand": "GGTTGGTGTGGTTGG"}
{"Modification": "2'F-ANA at 1 5 6 9 11 12 14 15", "mean fluorescence intensity": "46.2 a.u."}
{"Modification": "2'F-ANA at 1 4 7 10 11", "mean fluorescence intensity": "49.3 a.u."}
{"Modification": "2'F-ANA at 6 11 13 14", "mean fluorescence intensity": "159 a.u."}
{"Modification": "2'F-ANA at 4 10 11 15", "mean fluorescence intensity": "78.7 a.u."}
{"Modification": "2'F-ANA at 1 3 6 7 11 15", "mean fluorescence intensity": "208 a.u."}
{"Modification": "2'F-ANA at 1 3 4 10 12 13 14 15", "mean fluorescence intensity": "72.2 a.u."}
{"Modification": "2'F-ANA at 2 4 11 13 15", "mean fluorescence intensity": "286 a.u."}
{"Modification": "2'F-ANA at 2 3 8 11 12 14", "mean fluorescence intensity": "485 a.u."}
{"data": "Series 2", "Structure (SMILES)": "CCC(=O)N[C@H]1CC[C@@H](C(=O)N(C)c2ccc(-c3nc4ccccc4o3)cc2)C1", "observed": "cell-free assay", "technique": "competition with immobilised ligand", "tested at": "1 µM"}
{"target": "FLT3 (Homo sapiens, UniProt P36888, D835V/ITD)", "remaining binding": "100%"}
{"target": "OXSR1 (Homo sapiens, UniProt O95747)", "remaining binding": "83%"}
{"target": "HIPK4 (Homo sapiens, UniProt Q8NE63)", "remaining binding": "100%"}
{"data": "Series 3", "target": "Fragile X messenger ribonucleoprotein 1, C-terminal low-complexity region (Fmr1, Mus musculus, UniProt P35922)", "technique": "RNA Bind-n-Seq", "molecule type": "RNA", "medium": "in vitro", "tested at": "200 nM", "notes": "whole 134-nt RNA, ends assumed", "added": "150 mM KCl", "reference": "input library", "direction": "higher = stronger binding"}
{"Strand": "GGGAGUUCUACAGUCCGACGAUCAAGUCCUGUGCUACACAUCGUAUGUACCGAAUCGGAGGUUUUUUUGGAAAAAAAGGAAAGUAUUAUGUUACGCCGUUCGGAUCUGCACUUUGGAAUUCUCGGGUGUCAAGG", "log2 enrichment": -1.03}
{"Strand": "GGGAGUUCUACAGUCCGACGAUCCUGUGCUACACAUCGUAUGUACCGAAUCGGGGAAAAAGGGGUUUUUUUGGGGAAAAAGGGGAAAGUAUUAUGUUACGCCGUUCGGAUCUGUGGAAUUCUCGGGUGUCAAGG", "log2 enrichment": 0.00208}
{"Strand": "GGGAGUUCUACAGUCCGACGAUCAGUCCUGUGCUACACAUCGUAUGUACCGAAUCGGCCCCCGGCCCCCGGCCCCCGGGGAAAGUAUUAUGUUACGCCGUUCGGAUCUGCACUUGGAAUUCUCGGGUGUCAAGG", "log2 enrichment": -0.143}
{"Strand": "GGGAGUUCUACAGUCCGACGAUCUGGGAGGUGGAUUUUGUUUAUUUUUUUAGCUCAUUUCCAGGGGUGGGAAUUUUUUUUUAAUAUGUGUCAUGAAUAAAGUUGUUGUUGAAAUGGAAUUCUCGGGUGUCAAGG", "log2 enrichment": 0.654}
{"Strand": "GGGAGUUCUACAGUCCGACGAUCUCAAGUCCUGUGCUACACAUCGUAUGUACCGAAUCGGGGAAGGAAGGGAAGGGGAAAGUAUUAUGUUACGCCGUUCGGAUCUGCACUUCCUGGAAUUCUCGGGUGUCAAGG", "log2 enrichment": 0.467}
{"Strand": "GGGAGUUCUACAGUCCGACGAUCUAACUUUAGAGGAGGAUGUGAUGGAUAUGGCAGUGGACGUGGAUUUGGGGAUGGCUAUAAUGGGUAUGGAGGAGGACCUGGAGGUGGCAAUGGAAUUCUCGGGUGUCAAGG", "log2 enrichment": 0.231}
{"Strand": "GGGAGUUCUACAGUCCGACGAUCCACAGACAACACGCACCCACACAGACACAUAGGGAAGGGGUUGGGAUGGGGACAGGGUGCACAGCAGGGCGGGGUAGGACCCCAGCCCCUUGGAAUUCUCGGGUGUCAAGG", "log2 enrichment": 1.26}
{"Strand": "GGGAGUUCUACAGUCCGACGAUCCUCAAGUCCUGUGCUACACAUCGUAUGUACCGAAUCGGGCCGGGCCGGCCGGGAAAGUAUUAUGUUACGCCGUUCGGAUCUGCACUUCCAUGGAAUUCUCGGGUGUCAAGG", "log2 enrichment": -0.0987}
{"data": "Series 4", "SMILES": "CN(C)C[C@H]1CCn2c(c(C3=C(c4cn(C)c5ccccc45)C(=O)NC3=O)c3ccccc32)C1", "observed": "enzyme activity", "mode": "inhibitor", "tested at": "0.5 µM", "reference": "control"}
{"target": "GRK7 (Homo sapiens, UniProt Q8WTQ7)", "remaining activity [%]": 40}
{"target": "FRK (Homo sapiens, UniProt P42685)", "remaining activity [%]": 103}
{"target": "EPHA3 (Homo sapiens, UniProt P29320)", "remaining activity [%]": 99.2}
{"target": "MAPK3 (Homo sapiens, UniProt P27361)", "remaining activity [%]": 102}
{"target": "JAK3 (Homo sapiens, UniProt P52333)", "remaining activity [%]": 89.4}
{"target": "MAPKAPK2 (Homo sapiens, UniProt P49137)", "remaining activity [%]": 102}
{"target": "LCK (Homo sapiens, UniProt P06239)", "remaining activity [%]": 96.5}
{"target": "TBK1 (Homo sapiens, UniProt Q9UHD2)", "remaining activity [%]": 91.4}
{"target": "MAP3K14 (Homo sapiens, UniProt Q99558)", "remaining activity [%]": 105}
{"target": "ULK3 (Homo sapiens, UniProt Q6PHR2)", "remaining activity [%]": 88.9}
{"target": "CSNK1G2 (Homo sapiens, UniProt P78368)", "remaining activity [%]": 97}
{"target": "NEK6 (Homo sapiens, UniProt Q9HC98)", "remaining activity [%]": 94.6}
{"target": "ACVR1B (Homo sapiens, UniProt P36896)", "remaining activity [%]": 98.2}
{"note": "A few entries again (series 1):"}
{"Modification": "2'F-ANA at 1 3 4 10 12 13 14 15", "mean fluorescence intensity": "72.2 a.u."}
{"Modification": "2'F-ANA at 1 4 7 10 11", "mean fluorescence intensity": "49.3 a.u."}
{"Modification": "2'F-ANA at 1 5 6 9 11 12 14 15", "mean fluorescence intensity": "46.2 a.u."}
{"Modification": "2'F-ANA at 2 4 11 13 15", "mean fluorescence intensity": "286 a.u."}
